{"data": "Assay results pooled from the literature", "note": "Protocols differ between the studies behind these lines. ± gives the spread as reported."}
{"SMILES": "OCc1cn(Cc2ccc(-c3noc(-c4ccc(OCC[18F])c(C(F)(F)F)c4)n3)cc2)nn1", "test system": "female Lewis rat, kidney", "conditions": "intravenous, 5 min", "measurement": "tissue uptake", "result": "3.43 ± 0.31 %ID/g"}
{"SMILES": "CCCC[C@H](NC(=O)CNC(=O)CNC(=O)CN1CCN(CC(=O)O)CCN(CC(=O)O)CCN(CC(=O)O)CC1)C(=O)N[C@H]1CC(=O)NCCCC[C@@H](C(N)=O)NC(=O)[C@H](Cc2c[nH]c3ccccc23)NC(=O)[C@H](CCCNC(=N)N)NC(=O)[C@@H](Cc2ccccc2)NC(=O)[C@H](Cc2c[nH]cn2)NC1=O [gallium-67 labelled]", "test system": "female C57 mice, B16/F1 melanoma, liver", "conditions": "intravenous, 0.037 MBq, 0.5 h", "measurement": "tissue uptake", "result": "1.82 ± 0.13 %ID/g"}
{"SMILES": "[64Cu+2].c1ccc(CNCc2ccc(CN3CCCN4CCNCCCN(CC4)CC3)cc2)nc1", "tested on": "CXCR4", "test system": "NOD/SCID mouse, U87 and U87-stb-CXCR4 xenografts, lungs", "conditions": "iv, 60 min, ex vivo", "measurement": "tissue uptake", "result": "10.6 ± 1.72 %ID/g"}
{"SMILES": "CCCC[C@H](NC(=O)CNC(=O)CNC(=O)CN1CCN(CC(=O)O)CCN(CC(=O)O)CC1)C(=O)N[C@H]1CC(=O)NCCCC[C@@H](C(N)=O)NC(=O)[C@H](Cc2c[nH]c3ccccc23)NC(=O)[C@H](CCCNC(=N)N)NC(=O)[C@@H](Cc2ccccc2)NC(=O)[C@H](Cc2c[nH]cn2)NC1=O [copper-64 labelled]", "test system": "female C57 mouse, B16/F1 melanoma, bone", "conditions": "intravenous, 0.037 MBq, 24 h", "measurement": "tissue uptake", "result": "0.09 ± 0.07 %ID/g"}
{"SMILES": "O=C([O-])CN1CCN(CC(=O)[O-])CCN(CC(=O)NCCc2ccc3c(c2)C2C=CCC2C(c2cc4c(cc2Br)OCO4)N3)CCN(CC(=O)[O-])CC1.[111In+3] (stereo not drawn)", "test system": "mouse, Hec50 endometrial tumour, kidneys", "conditions": "2 h post injection", "measurement": "tissue uptake", "result": "1.62 ± 0.53 %ID/g"}
{"SMILES": "CC[C@H]1[C@@H](O)[C@@H]2[C@H](CC[C@]3(C)[C@@H]([C@H](C)CCOS(=O)(=O)[O-])CC[C@@H]23)[C@@]2(C)CC[C@@H](O)C[C@@H]12.[Na+]", "test system": "ob/ob NASH mice, plasma", "conditions": "oral, 3 mg/kg once daily, baseline before treatment, 8 wk study", "measurement": "plasma triglycerides", "result": "0.8 ± 0.1 mmol/L"}
{"SMILES": "CN(C)c1ccc(-c2nc3ccc(OCCCCCN4CCN5CCN(CC4)CC(=O)[O][Al]([18F])[O]C(=O)C5)cc3s2)cc1", "test system": "ICR mouse, blood", "conditions": "intravenous, 2 min", "measurement": "tissue uptake", "result": "7.81 ± 0.85 %ID/g"}
{"SMILES": "O=C(O)C1CN(Cc2ccc(-c3noc(-c4ccc(OCC[18F])c(C(F)(F)F)c4)n3)cc2)C1", "test system": "male Sprague-Dawley rat, lung", "conditions": "intravenous, 5 min", "measurement": "tissue uptake", "result": "0.753 ± 0.097 %ID/g"}
{"SMILES": "CCCC[C@H](NC(=O)COCCOCCNC(=O)CN1CCN(CC(=O)O)CCN(CC(=O)O)CC1)C(=O)N[C@H]1CC(=O)NCCCC[C@@H](C(N)=O)NC(=O)[C@H](Cc2c[nH]c3ccccc23)NC(=O)[C@H](CCCNC(=N)N)NC(=O)[C@@H](Cc2ccccc2)NC(=O)[C@H](Cc2c[nH]cn2)NC1=O [copper-64 labelled]", "test system": "C57 mice, tumor", "conditions": "intravenous, 0.37 MBq, 24 h", "measurement": "tissue uptake", "result": "8.78 ± 2.29 %ID/g"}
{"SMILES": "O=C([O-])c1cccc(CN(CCN(Cc2cn(Cc3ccccc3)nn2)Cc2cccc(C(=O)[O-])n2)Cc2cn(Cc3ccccc3)nn2)n1.[64Cu+2]", "test system": "healthy athymic nude mice, spleen", "conditions": "intravenous, 24 h", "measurement": "tissue uptake", "result": "3.13 %ID/g"}
{"SMILES": "[64Cu+2].c1cnc(CNCc2ccc(CN3CCCN4CCNCCCN(CC4)CC3)cc2)nc1", "tested on": "CXCR4", "test system": "NOD/SCID mouse, U87 and U87-stb-CXCR4 xenografts, liver", "conditions": "iv, 240 min, ex vivo", "measurement": "tissue uptake", "result": "79.1 ± 4.85 %ID/g"}
{"SMILES": "NC12CNCCNCC(NCc3ccc(CNC(=O)CCCC(=O)NCc4ccc(-c5nncnn5)cc4)cc3)(CNCCNC1)CNCCNC2.[64Cu+2]", "test system": "athymic nude mice SW1222 xenograft, spleen", "conditions": "4 h post injection, 24 h accumulation interval, added: huA33-TCO pretargeting", "measurement": "tissue uptake", "result": "0.81 ± 0.2 %ID/g"}
{"SMILES": "CCCC[C@H](NC(=O)CNC(=O)CNC(=O)CN1CCN(CC(=O)O)CCN(CC(=O)O)CCN(CC(=O)O)CC1)C(=O)N[C@H]1CC(=O)NCCCC[C@@H](C(N)=O)NC(=O)[C@H](Cc2c[nH]c3ccccc23)NC(=O)[C@H](CCCNC(=N)N)NC(=O)[C@@H](Cc2ccccc2)NC(=O)[C@H](Cc2c[nH]cn2)NC1=O [copper-64 labelled]", "test system": "C57 mouse B16/F1 melanoma, pancreas", "conditions": "0.5 h", "measurement": "tissue uptake", "result": "1.34 ± 0.28 %ID/g"}
{"SMILES": "CC(=O)N[C@H](C(=O)N[C@H](C(=O)N[C@@H](CCCNC(=N)N)C(=O)N1Cc2ccccc2C[C@H]1C(=O)N[C@@H](Cc1ccccc1)C(N)=O)C1CCCCC1)C(C)C", "tested on": "human PBMC", "test": "Bio-Plex multiplex, item: IL-15", "conditions": "500 µg/mL, 24 h", "measurement": "cytokine level", "result": "< 0.19 pg/mL"}
{"SMILES": "CC(C)[C@H](NC(=O)[C@@H]1CCCN1C(=O)[C@H](CCCNC(=N)N)NC(=O)[C@H](CS)NC(=O)[C@H](Cc1c[nH]c2ccccc12)NC(=O)[C@H](CCCNC(=N)N)NC(=O)[C@@H](Cc1ccccc1)NC(=O)[C@H](Cc1c[nH]cn1)NC(=O)[C@H](CCC(=O)O)NC(=O)[C@H](CS)NC(=O)[C@H](CS)NC(=O)[C@@H]1CC(=O)N[C@@H](CCCNC(=N)N)C(=O)NCC(=O)N[C@@H](CC(=O)O)C(=O)N[C@H](Cc2ccc(O)cc2)C(=O)N1)C(N)=O [technetium-99m labelled]", "test system": "C57 mouse, female, B16/F1 melanoma, blood", "conditions": "intravenous, 0.037 MBq, 2 h", "measurement": "tissue uptake", "result": "0.74 ± 0.34 %ID/g"}
{"SMILES": "CCCC[C@H](NC(=O)CNC(=O)CNC(=O)CN1CCN(CC(=O)O)CCN(CC(=O)O)CCN(CC(=O)O)CC1)C(=O)N[C@H]1CC(=O)NCCCC[C@@H](C(N)=O)NC(=O)[C@H](Cc2c[nH]c3ccccc23)NC(=O)[C@H](CCCNC(=N)N)NC(=O)[C@@H](Cc2ccccc2)NC(=O)[C@H](Cc2c[nH]cn2)NC1=O [lead-203 labelled]", "test system": "C57 mouse, brain", "conditions": "intravenous, 0.056 MBq, 2 h", "measurement": "tissue uptake", "result": "0.05 ± 0.01 %ID/g"}
{"SMILES": "O=Cc1c(O)ccc2ccccc12", "tested on": "HUVEC", "test": "RNA sequencing, item: TMEM45B", "conditions": "75 µM, 24 h", "how to read": "reference: DMSO", "measurement": "log2 fold change", "result": 2.67}
{"SMILES": "CC(C)[C@H](NC(=O)[C@@H]1CCCN1C(=O)[C@H](CCCNC(=N)N)NC(=O)[C@H](CS)NC(=O)[C@H](Cc1c[nH]c2ccccc12)NC(=O)[C@H](CCCNC(=N)N)NC(=O)[C@@H](Cc1ccccc1)NC(=O)[C@H](Cc1c[nH]cn1)NC(=O)[C@H](CCC(=O)O)NC(=O)[C@H](CS)NC(=O)[C@H](CS)NC(=O)CNC(=O)[C@@H]1CC(=O)N[C@@H](CCCNC(=N)N)C(=O)NCC(=O)N[C@@H](CC(=O)O)C(=O)N[C@H](Cc2ccc(O)cc2)C(=O)N1)C(N)=O [technetium-99m labelled]", "test system": "C57 mouse, female, B16/F1 melanoma, bone", "conditions": "intravenous, 0.037 MBq, 0.5 h", "measurement": "tissue uptake", "result": "2.02 ± 0.51 %ID/g"}
{"SMILES": "CCCC[C@@H]1NC(=O)[C@@H](NC(=O)[C@H](CCC(=O)O)NC(=O)CNC(=O)CN2CCN(CC(=O)O)CCN(CC(=O)O)CCN(CC(=O)O)CC2)CCCCNC(=O)C[C@@H](C(N)=O)NC(=O)[C@H](C(C)C)NC(=O)[C@@H]2CCCN2C(=O)[C@H](CCCNC(=N)N)NC(=O)CNC(=O)[C@H](Cc2c[nH]c3ccccc23)NC(=O)[C@H](CCCNC(=N)N)NC(=O)[C@@H](Cc2ccccc2)NC(=O)[C@H](Cc2c[nH]cn2)NC(=O)[C@H](CCC(=O)O)NC1=O [gallium-67 labelled]", "test system": "C57 mice with B16/F1 melanoma, liver", "conditions": "intravenous, 0.5 h", "measurement": "tissue uptake", "result": "0.69 ± 0.27 %ID/g"}
{"SMILES": "NS(=O)(=O)c1ccc(NC(=O)NN[C@@H]2O[C@H](CO)[C@@H](O)[C@H](O)[C@@H]2O)cc1", "tested on": "rabbit erythrocytes", "conditions": "8 µg/mL, 3 h", "how to read": "reference: complete lysis", "measurement": "hemolysis", "result": "0%"}
{"SMILES": "C[C@H](CN(C)Cc1ccccc1)NC(=O)c1ccc(-c2noc(C(F)(F)[18F])n2)cc1", "test": "PET imaging", "test system": "female Sprague-Dawley rats, brain", "conditions": "intravenous, 1 min", "measurement": "tissue uptake", "result": "2.96 ± 0.95 SUV"}
{"note": "A few entries again:"}
{"SMILES": "CCCC[C@@H]1NC(=O)[C@@H](NC(=O)[C@H](CCC(=O)O)NC(=O)CNC(=O)CN2CCN(CC(=O)O)CCN(CC(=O)O)CCN(CC(=O)O)CC2)CCCCNC(=O)C[C@@H](C(N)=O)NC(=O)[C@H](C(C)C)NC(=O)[C@@H]2CCCN2C(=O)[C@H](CCCNC(=N)N)NC(=O)CNC(=O)[C@H](Cc2c[nH]c3ccccc23)NC(=O)[C@H](CCCNC(=N)N)NC(=O)[C@@H](Cc2ccccc2)NC(=O)[C@H](Cc2c[nH]cn2)NC(=O)[C@H](CCC(=O)O)NC1=O [gallium-67 labelled]", "test system": "C57 mice with B16/F1 melanoma, liver", "conditions": "intravenous, 0.5 h", "measurement": "tissue uptake", "result": "0.69 ± 0.27 %ID/g"}
{"SMILES": "CC[C@H]1[C@@H](O)[C@@H]2[C@H](CC[C@]3(C)[C@@H]([C@H](C)CCOS(=O)(=O)[O-])CC[C@@H]23)[C@@]2(C)CC[C@@H](O)C[C@@H]12.[Na+]", "test system": "ob/ob NASH mice, plasma", "conditions": "oral, 3 mg/kg once daily, baseline before treatment, 8 wk study", "measurement": "plasma triglycerides", "result": "0.8 ± 0.1 mmol/L"}
{"SMILES": "OCc1cn(Cc2ccc(-c3noc(-c4ccc(OCC[18F])c(C(F)(F)F)c4)n3)cc2)nn1", "test system": "female Lewis rat, kidney", "conditions": "intravenous, 5 min", "measurement": "tissue uptake", "result": "3.43 ± 0.31 %ID/g"}
